Assay results from different studies.
Compare with care: the assays were run in different laboratories. Several values in a cell are separate wells, animals, samples, runs or records.
U2AF2: U2AF2 148-342 (Homo sapiens, UniProt P26368)
Chain of UniProt P26368 (whole entry, looked up): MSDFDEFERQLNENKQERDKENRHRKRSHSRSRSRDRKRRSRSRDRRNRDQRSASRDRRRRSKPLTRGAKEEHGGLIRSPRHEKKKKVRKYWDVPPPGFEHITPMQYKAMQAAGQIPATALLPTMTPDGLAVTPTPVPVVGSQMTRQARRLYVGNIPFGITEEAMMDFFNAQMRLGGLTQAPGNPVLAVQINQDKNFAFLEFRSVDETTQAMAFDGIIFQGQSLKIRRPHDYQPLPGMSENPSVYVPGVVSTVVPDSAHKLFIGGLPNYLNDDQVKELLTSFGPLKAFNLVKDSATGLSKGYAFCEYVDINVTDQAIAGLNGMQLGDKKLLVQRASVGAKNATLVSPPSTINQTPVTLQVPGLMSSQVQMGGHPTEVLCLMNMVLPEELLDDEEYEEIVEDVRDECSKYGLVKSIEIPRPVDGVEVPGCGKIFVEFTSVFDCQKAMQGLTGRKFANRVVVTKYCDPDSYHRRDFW
B1: human calnexin; sequence looked up; chain HDGHDDDVIDIEDDLDDVIEEVEDSKPDTTAPPSSPKVTYKAPVPTGEVYFADSFDRGTLSGWILSKAKKDDTDDEIAKYDGKWEVEEMKESKLPGDKGLVLMSRAKHHAISAKLNKPFLFDTKPLIVQYEVNFQNGIECGGAYVKLLSKTPELNLDQFHDKTPYTIMFGPDKCGEDYKLHFIFRHKNPKTGIYEEKHAKRPDADLKTYFTDKKTHLYTLILNPDNSFEILVDQSVVNSGNLLNDMTPPVNPSREIEDPEDRKPEDWDERPKIPDPEAVKPDDWDEDAPAKIPDEEATKPEGWLDDEPEYVPDPDAEKPEDWDEDMDGEWEAPQIANPRCESAPGCGVWQRPVIDNPNYKGKWKPPMIDNPSYQGIWKPRKIPNPDFFEDLEPFRMTPFSAIGLELWSMTSDIFFDNFIICADRRIVDDWANDGWGLKKAADGAAEPGVVGQMIEAAEERPWLWVVYILTVALPVFLVILFCCSGKKQTSGMEYKKTDAPQPDVKEEEEEKEEEKDKGDEEEEGEEKLEEKQKSDAEEDGGTVSQEEEDRKPKAEEDEILNRSPRNRKPRRE
B2: human SND1; sequence looked up; chain ASSAQSGGSSGGPAVPTVQRGIIKMVLSGCAIIVRGQPRGGPPPERQINLSNIRAGNLARRAAATQPDAKDTPDEPWAFPAREFLRKKLIGKEVCFTIENKTPQGREYGMIYLGKDTNGENIAESLVAEGLATRREGMRANNPEQNRLSECEEQAKAAKKGMWSEGNGSHTIRDLKYTIENPRHFVDSHHQKPVNAIIEHVRDGSVVRALLLPDYYLVTVMLSGIKCPTFRREADGSETPEPFAAEAKFFTESRLLQRDVQIILESCHNQNILGTILHPNGNITELLLKEGFARCVDWSIAVYTRGAEKLRAAERFAKERRLRIWRDYVAPTANLDQKDKQFVAKVMQVLNADAIVVKLNSGDYKTIHLSSIRPPRLEGENTQDKNKKLRPLYDIPYMFEAREFLRKKLIGKKVNVTVDYIRPASPATETVPAFSERTCATVTIGGINIAEALVSKGLATVIRYRQDDDQRSSHYDELLAAEARAIKNGKGLHSKKEVPIHRVADISGDTQKAKQFLPFLQRAGRSEAVVEYVFSGSRLKLYLPKETCLITFLLAGIECPRGARNLPGLVQEGEPFSEEATLFTKELVLQREVEVEVESMDKAGNFIGWLHIDGANLSVLLVEHALSKVHFTAERSSYYKSLLSAEEAAKQKKEKVWAHYEEQPVEEVMPVLEEKERSASYKPVFVTEITDDLHFYVQDVETGTQLEKLMENMRNDIASHPPVEGSYAPRRGEFCIAKFVDGEWYRARVEKVESPAKIHVFYIDYGNREVLPSTRLGTLSPAFSTRVLPAQATEYAFAFIQVPQDDDARTDAVDSVVRDIQNTQCLLNVEHLSAGCPHVTLQFADSKGDVGLGLVKEGLVMVEVRKEKQFQKVITEYLNAQESAKSARLNLWRYGDFRADDADEFGYSR
B3: human EEF1D; sequence looked up; chain ATNFLAHEKIWFDKFKYDDAERRFYEQMNGPVAGASRQENGASVILRDIARARENIQKSLAGSSGPGASSGTSGDHGELVVRIASLEVENQSLRGVVQELQQAISKLEARLNVLEKSSPGHRATAPQTQHVSPMRQVEPPAKKPATPAEDDEDDDIDLFGSDNEEEDKEAAQLREERLRQYAEKKAKKPALVAKSSILLDVKPWDDETDMAQLEACVRSIQLDGLVWGASKLVPVGYGIRKLQIQCVVEDDKVGTDLLEEEITKFEEHVQSVDIAAFNKI
B4: human PHGDH; sequence looked up; chain AFANLRKVLISDSLDPCCRKILQDGGLQVVEKQNLSKEELIAELQDCEGLIVRSATKVTADVINAAEKLQVVGRAGTGVDNVDLEAATRKGILVMNTPNGNSLSAAELTCGMIMCLARQIPQATASMKDGKWERKKFMGTELNGKTLGILGLGRIGREVATRMQSFGMKTIGYDPIISPEVSASFGVQQLPLEEIWPLCDFITVHTPLLPSTTGLLNDNTFAQCKKGVRVVNCARGGIVDEGALLRALQSGQCAGAALDVFTEEPPRDRALVDHENVISCPHLGASTKEAQSRCGEEIAVQFVDMVKGKSLTGVVNAQALTSAFSPHTKPWIGLAEALGTLMRAWAGSPKGTIQVITQGTSLKNAGNCLSPAVIVGLLKEASKQADVNLVNAKLLVKEAGLNVTTSHSPAAPGEQGFGECLLAVALAGAPYQAVGLVQGTTPVLQGLNGAVFRPEVPLRRDLPLLLFRTQTSDPAMLPTMIGLLAEAGVRLLSYQTSLVSDGETWHVMGISSLLPSLEAWKQHVTEAFQFHF
Chain of UniProt Q00535 (whole entry, looked up): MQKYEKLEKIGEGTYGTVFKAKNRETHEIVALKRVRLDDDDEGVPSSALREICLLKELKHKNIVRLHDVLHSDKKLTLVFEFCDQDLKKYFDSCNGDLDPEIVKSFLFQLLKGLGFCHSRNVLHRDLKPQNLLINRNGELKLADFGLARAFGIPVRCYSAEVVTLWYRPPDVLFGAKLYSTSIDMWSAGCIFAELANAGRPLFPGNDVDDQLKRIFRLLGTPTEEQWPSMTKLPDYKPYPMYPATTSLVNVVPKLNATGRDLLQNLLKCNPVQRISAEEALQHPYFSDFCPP

| Substance | target or system | test | system | conditions | how to read | measurement | result |
| --- | --- | --- | --- | --- | --- | --- | --- |
| KEAFWDRCLTVINLMSSKMLQINA | Cyclin-dependent kinase 5, with p25 (CDK5, Homo sapiens, UniProt Q00535) | phosphotransferase activity, radiometric | peptide | concentration not given, 10% DMSO, with: histone substrate | reference: p5-WT peptide | activity change | 56% |
| GSGAGSETVV | construct, MBP fusion, human SCRIB, PDZ 3-4 | automated holdup | peptide, purified PDZ protein | concentration not given, unit not given | reference: biotin control resin, higher = stronger binding | binding intensity | -0.0265 |
| B1 (human calnexin) | PP6C (human) | co-immunoprecipitation, IP-MS | CYB5R4 knockout cells | concentration not given | reference: CYB5R4 knockout over parental | log2 fold change | -0.07 |
| milbemycin oxime | Saccharomyces cerevisiae | cell growth | Pdr5 deleted, Cdr1 overexpressed | 2^-4.966 µg/mL, with: fluconazole 1 µg/mL |  | OD600 | 0.677 and 0.589 and 0.637 |
| CACUAGUUC (ssRNA) | U2AF2 | sequencing of bound RNA | RNA | motif only |  | Kd | 15.8 µM |
| colistin | Escherichia coli | broth microdilution | clinical isolate RKI-No_317/16 |  |  | MIC | 4 µg/mL |
| CCUUGUAUU (ssRNA) | U2AF2 | sequencing of bound RNA | RNA | motif only |  | Kd | 8.65 µM |
| VVVGAAGVGK | HLA-A*11:01 peptide-β2M single-chain trimer | western blot, item: pMHC-I | peptide, 293T cells | 24 h, unit not given, with: 100 µg/mL cycloheximide | reference: time zero | remaining protein | 0.632 and 0.656 and 0.638 |
| GSGAGKESYV | construct, MBP fusion, human SCRIB, PDZ 3-4 | automated holdup | peptide, crude extract | concentration not given, uncorrected, unit not given | reference: biotin control resin, higher = stronger binding | binding intensity | 0.235 |
| epoetin alfa | UT7/EPO | microarray, item: BMP2 (probe 205290_s_at) |  | 5 U/mL, 90 min, with: SCF 10 nM | reference: vehicle | mRNA level | 4 fold |
| human VCP | CYB5R4 knockout human cells | PP4 interaction, 3xFLAG-PP4C IP-MS |  | concentration not given | reference: CYB5R4 KO over parental | log2 fold change | 0.5 |
| Polymyxin B | Klebsiella pneumoniae |  | ATCC 43863 | concentration not given |  | glutathione peroxidase activity | 2.83 U/mg and 2.7 U/mg and 2.79 U/mg |
| B2 (human SND1) | PP6C (human) | co-immunoprecipitation, IP-MS | CYB5R4 knockout cells | concentration not given | reference: CYB5R4 knockout over parental | log2 fold change | 0.14 |
| GSGAGQITKV | construct, MBP fusion, human SCRIB, PDZ 3-4 | automated holdup | peptide, crude extract | concentration not given, uncorrected, unit not given | reference: biotin control resin, higher = stronger binding | binding intensity | 0.0678 |
| B3 (human EEF1D) | PP6C (human) | co-immunoprecipitation, IP-MS | CYB5R4 knockout cells | concentration not given | reference: CYB5R4 knockout over parental | log2 fold change | -2.95 |
| NRVDSKETEC | construct, MBP fusion, human SCRIB, PDZ 3-4 | automated holdup | peptide, crude extract | concentration not given, uncorrected, unit not given | reference: biotin control resin, higher = stronger binding | binding intensity | 0.277 |
| B4 (human PHGDH) | CYB5R4 knockout human cells | PP4 interaction, 3xFLAG-PP4C IP-MS |  | concentration not given | reference: CYB5R4 KO over parental | log2 fold change | -0.84 |
| Peginesatide | UT7/EPO | tyrosine phosphorylation, LC-MS/MS phosphoproteomics, GluC, item: GAB3 tyrosine 183 |  | 10 nM, 15 min, with: 10 U/mL EPO | reference: vehicle | phosphorylation level | 9.2 fold |

Some of these lines once more:
| Substance | target or system | test | system | conditions | how to read | measurement | result |
| --- | --- | --- | --- | --- | --- | --- | --- |
| CCUUGUAUU (ssRNA) | U2AF2 | sequencing of bound RNA | RNA | motif only |  | Kd | 8.65 µM |
| epoetin alfa | UT7/EPO | microarray, item: BMP2 (probe 205290_s_at) |  | 5 U/mL, 90 min, with: SCF 10 nM | reference: vehicle | mRNA level | 4 fold |
| VVVGAAGVGK | HLA-A*11:01 peptide-β2M single-chain trimer | western blot, item: pMHC-I | peptide, 293T cells | 24 h, unit not given, with: 100 µg/mL cycloheximide | reference: time zero | remaining protein | 0.632 and 0.656 and 0.638 |
